Measured values from different studies.
Numbered parts are unrelated; each lists some results of a single study. Substitutions count along the parent as printed.

Series 1 — target: CCNB2, cyclin fold, Cln2 fusion (human); technique: yeast growth competition, sequencing; matrix: yeast; setting: weak parent motif; reference: not given; direction: higher = stronger binding
Parent: CDKN1B docking peptide (human); PSACRNLFGPVDH; partner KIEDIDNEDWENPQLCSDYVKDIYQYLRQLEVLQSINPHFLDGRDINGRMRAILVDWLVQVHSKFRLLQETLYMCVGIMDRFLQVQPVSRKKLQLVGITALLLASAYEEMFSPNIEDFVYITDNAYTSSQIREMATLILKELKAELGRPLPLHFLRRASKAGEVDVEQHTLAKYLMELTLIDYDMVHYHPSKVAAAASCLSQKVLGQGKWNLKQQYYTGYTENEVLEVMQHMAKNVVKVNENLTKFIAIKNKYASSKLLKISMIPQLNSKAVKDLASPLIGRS
Change	normalised enrichment score
L7V	0.317
N6D	-0.131
L7K	0.176
P1F	0.322
P10L	0.539
V11F	-0.124
N6G	0.148
R5G	-0.535
L7G	0.155
N6H	-0.114
A3W	0.31
H13F	0.306
V11E	-0.15

Series 2 — technique: DHFR PCA, deep sequencing; matrix: yeast; together with: (+)-ABA 0.032 µM; reference: wild-type fitted maximum; direction: higher = stronger binding
Target: ABI1, truncated, D143A, DHFR fusion (Arabidopsis thaliana)
Setting: methotrexate growth selection, single substitutions
Parent: PYL1, truncated, DHFR fusion (Arabidopsis thaliana); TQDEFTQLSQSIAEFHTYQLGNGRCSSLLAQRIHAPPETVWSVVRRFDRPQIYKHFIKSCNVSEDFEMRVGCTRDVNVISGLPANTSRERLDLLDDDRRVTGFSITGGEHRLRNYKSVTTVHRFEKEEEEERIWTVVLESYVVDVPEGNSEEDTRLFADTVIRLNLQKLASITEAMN
Change	relative binding score [%]
R155Y	-3.5
L138Y	-1.63
T1C	25.5
M176T	6.22
Y53K	-5.43
V62C	-1.66
W41S	-2.97
E38H	-0.656
F124V	29.6
R98P	4.96
L93E	2.85
C60D	9.01

Series 3 — technique: protein-binding microarray; molecule type: double-stranded DNA, one strand shown; matrix: in vitro; tested at: 250 nM; setting: 60-bp whole probe; together with: salmon DNA 0.4 mg/ml; reference: random background probes; direction: higher = stronger binding; shared flanks, not repeated: GCCTAGCAC … GTCTTGATTCGCTTGACGCTGCTG
Target: Interferon regulatory factor 5, full length, phosphomimetic (IRF5, Homo sapiens, UniProt Q13568-2, residues 1-514, K96S/S451D/S453D/S456D/S462D)
Strand	log fluorescence [z-score]
TAAGATTTCAGTATCGATTAGTGCTAG	8.42
TTAGGTCGCCTTCTCCTTTAGTGCTAG	-0.108
GACGTTTTCGGGACTGGGGACGTGCTA	2.61
CTCCACTTGTGTTTGGGCATGTGCTAG	0.0263
TTAGATTTCAGTTCCGATCAGTGCTAG	2.75
GACGAACTGACTCTCGAGACGTGCTAG	-0.206
TCGCACACATACGGCTTCTCGTGCTAG	0.0426
GACGGACGGGGACTGGGGACGTGCTAG	-0.656
ATAGATTCCAGTTTCGATTAGTGCTAG	10.1
GACGACCTCAGTATCGAGACGTGCTAG	1.34
CTAGGTTTCGGTCTCGGTTAGTGCTAG	9.97
GACGATTTCAGTTCCGAGCCGTGCTAG	1.18
TTAGATATCGGAACTGGATTAGTGCTA	1.62
TCAGGAAACCGGAAAGGCACTGTGCTA	-0.181
TTAGGCCTCGGTTTCGGTTAGTGCTAG	8.09
TTAGGTATCCATATCCTTTAGTGCTAG	0.272
TCAGGTATTTTTCTAAAACTGTGCTAG	0.292
GACGGTATCGACTTTCGGGATGTGCTA	7.37
TTAGAACTGGGATTTCGATTAGTGCTA	2.49

Series 4 — technique: protein-binding microarray; molecule type: double-stranded DNA, one strand shown; matrix: in vitro; tested at: not given; direction: higher = stronger binding
Target: Transcription factor SOX-2, HMG box (SOX2, Homo sapiens, UniProt P48431, residues 19-118)
UniProt P48431, sequence (19-118, looked up): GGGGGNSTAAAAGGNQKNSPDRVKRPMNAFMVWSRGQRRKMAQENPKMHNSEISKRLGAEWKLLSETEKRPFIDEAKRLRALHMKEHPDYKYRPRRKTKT
Setting: k-mer, scored over probes, only values ≥0.25
Strand	E-score
CAATATG	0.321
CAATGCA	0.311
ATATAAT	0.364
ACAAAGG	0.381
ATGATAA	0.291
ATATAAA	0.334
AAAATTG	0.274
CACAATC	0.28
AATTTTA	0.283
CATAAAA	0.255
CTATTCA	0.396
CAATTAC	0.295
TAAATAA	0.311
AATTGGG	0.299
ATAGAAA	0.281
ATATGTG	0.333

Series 5 — technique: RNA Bind-n-Seq; molecule type: RNA; matrix: in vitro; tested at: not given; reference: input RNA pool; direction: higher = stronger binding
Target: RING finger protein unkempt homolog, zinc fingers 1-6, GST-SBP tag (UNK, Homo sapiens, UniProt Q9C0B0, residues 30-357)
UniProt Q9C0B0, sequence (30-357, looked up): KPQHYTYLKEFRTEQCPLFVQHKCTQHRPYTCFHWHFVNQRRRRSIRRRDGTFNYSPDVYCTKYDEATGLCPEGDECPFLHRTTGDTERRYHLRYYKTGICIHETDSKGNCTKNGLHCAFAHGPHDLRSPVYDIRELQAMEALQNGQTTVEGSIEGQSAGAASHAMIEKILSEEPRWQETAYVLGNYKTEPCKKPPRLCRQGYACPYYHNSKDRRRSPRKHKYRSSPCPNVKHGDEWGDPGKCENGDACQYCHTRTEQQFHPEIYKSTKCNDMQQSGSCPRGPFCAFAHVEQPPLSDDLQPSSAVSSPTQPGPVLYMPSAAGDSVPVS
Setting: RNA with constant flanks, human and mouse sites, ends assumed
Shared flanks, not repeated: GGGAGUUCUACAGUCCGACGAUC … CAACAGAGGAUUGAGCAUCA
Strand	bound/input enrichment
UGCGCUGUCUGCCCUUCUGGAAACCCAACCUGCCAUCAGCUGUAAAUCAGAUUCUUCACAUUCCAGGUGUAAGCUUUCCCUUCCCUGUGACUCUCAGUCCCUAGCUACAUGGUCAGGGGG	0.224 ratio
GUUUCUAUUCAUCCUAAGUCUGUCAACGUGGAGCAGACAGACUUCCACUACAACUGGCUUAUCUAUCACCUGAAGAUGAGAACAAGCAGUAUAUACUUGUACGACUGUACAGAAGUGUCA	0.267 ratio
AAAGCCCUGUGAAGGUCUACUGACCGCUCACUAUUGUCUGGUAUCUGUAAACACUUCUGUUUAGUCCUUUCAUGGUAUAAUUGAUGUUCUUUAAAACUGUCAGUGUAAAACAGGGCUUAU	14.9 ratio
CCCUUACCCCCGCCCCUUCCCUCUUCCUCCCCCAUCAAAACUCCGCUUGUGUCCCCACCCGGCCCACUGACCAAAGGGAACCUCCCGGUGGUUGCACCCCCCGUCCCCUGUGCGCCACCA	1.32 ratio
CAGGCGACUGAGAUGCUGUACAUGCGUCUGGACACGAUGAGUACCACGUGUGUUGACAGGUUUAUUAAUUGGUUUUCUCAUCAUCUAAGUAAUUUUCAAUUCCGUUGGAGCUGGGAAGAU	0.372 ratio
UGACUCUGCUCUGACCCCCACCAGUGCCGCACAGUCUGGAAUAAAAGCAGAAGCAUGGUGAAGCUGAACAGCAACCCUGGAGAGAAGGGGGCCAAGCCGCCUUCCGUGGAGGAUGGUUUC	0.117 ratio
ACAAUCUACUCUGCAACCAAGGCCUUUGUAGAUUUCUUCUCUCAGUGCCUCCAUGAGGAGUAUAAGAGCAAGGGCAUCUUUGUGCAGAGUGUCAUGCCAUACCUUGUAGCUACAAAACUG	0.198 ratio
AGAAAGCAAAACUUGGAACGAUUUAAGAAAGGAGACGUAAGAUUCUUGAUUUGCACAGAUGUAGCUGCUAGAGGGAUUGAUAUCCAUGGCGUUCCUUAUGUGAUCAACGUCACCCUGCCU	0.208 ratio

Other studies, line by line
Molecule	target	test	system	setting	scale	endpoint	result
PhoQ, residues 284 288 289 292 302 303 GANMMA	PhoP, residues 12 14 15 18 19 LHATL (Escherichia coli, UniProt P23836)	Sort-seq, measured: YFP reporter	E. coli	PhoQ-PhoP variant library, together with: 10 µM Mg2+	reference: high Mg2+ state, higher = stronger signaling	fold induction	18

Some of these lines once more (series 2):
Change	relative binding score [%]
F124V	29.6
E38H	-0.656
M176T	6.22
R155Y	-3.5
T1C	25.5
L93E	2.85
